Published values from different studies.
Protocols differ between the studies behind these lines. ± gives the spread as reported.

CN(C)C(CNC(=O)Nc1cc(C(F)(F)F)ccc1N1CCOCC1)c1ccncc1 (stereo not shown) — serum cholesterol (mouse, serum; intraperitoneal, 240 mg/kg single dose): 68 mg/dL
CC(C)[C@]12O[C@H]1[C@@H]1O[C@]13[C@]1(O[C@H]1C[C@H]1c4c(C(=O)c5ccccc5)oc(OC(=O)c5ccccc5)c4CC[C@@]13C)[C@@H]2O — maximum tolerated dose (Sprague Dawley rat, female; intravenous, single injection): 3 mg/kg
O=S(=O)(O)C(F)(F)C(F)(F)OC(F)(C(F)(F)F)C(F)(F)OC(F)C(F)(F)F (stereo not shown) — elimination half-life (two-sample first-order model; human, both sexes, serum): 296 days
CC(C)C[C@H](NC=O)C(=O)N[C@@H](C)C(=O)N[C@@H](C)C(=O)N[C@@H](CC(=O)O)C(=O)N[C@@H](CC(C)C)C(=O)N[C@@H](CC(C)C)C(=O)N[C@@H](C)C(=O)N[C@@H](C)C(=O)N[C@@H](CC(C)C)C(=O)NCC(=O)N[C@@H](CC(=O)O)C(=O)N[C@@H](CC(C)C)C(=O)N[C@@H](C)C(=O)N[C@@H](CCCCN)C(=O)N[C@@H](Cc1c[nH]c2ccccc12)C(=O)N[C@@H](CC(C)C)C(=O)N[C@@H](CC(C)C)C(=O)N[C@@H](CC(=O)O)C(=O)N[C@@H](C)C(=O)N[C@@H](CC(C)C)C(=O)N[C@@H](C)C(=O)N[C@@H](CCCCN)C(=O)N[C@@H](C)C(=O)N[C@@H](C)C(=O)N[C@@H](CCCCN)C(=O)N[C@@H](CCCCN)C(=O)O (racemic) — helicity (circular dichroism; phosphate buffer 10 mM; 1 to 5 µM, pH 7.5, approximate): 54%
CCCS(=O)(=O)c1ccc2[nH]c(NC(=O)OC)nc2c1 — percent metabolized (human liver microsomes; 1 µM, 30 min, 0.5 mg/mL protein): 24.3%
C[C@H](NC(=O)[C@H](CC(=O)O)NC(=O)[C@H](C)NC(=O)[C@H](CCCNC(=N)N)NC(=O)[C@H](C)NC(=O)[C@H](CC(=O)O)NC(=O)[C@H](C)NC(=O)[C@H](CCCNC(=N)N)NC(=O)[C@H](Cc1ccccc1)NC(=O)[C@H](Cc1ccccc1)NC(=O)OCC1c2ccccc2-c2ccccc21)C(=O)NCC(=O)N[C@@H](CCCNC(=N)N)C(=O)N[C@@H](CCCCN)C(=O)N[C@@H](CCCCN)C(=O)N[C@@H](CCCNC(=N)N)C(=O)N[C@@H](CCCNC(=N)N)C(=O)N[C@@H](CCC(N)=O)C(=O)N[C@@H](CCCNC(=N)N)C(=O)N[C@@H](CCCNC(=N)N)C(=O)N[C@@H](CCCNC(=N)N)C(=O)N1CCC[C@H]1C(=O)N[C@@H](CCC(N)=O)C(N)=O — nanostructure length (AFM; water on mica; 400 µM): 150 ± 111 nm
CC[C@H](C)[C@@H]1NC(=O)[C@H](Cc2ccccc2)NC(=O)[C@H](CC(=O)O)NC(=O)[C@H](CCCNC(=N)N)NC(=O)[C@H](Cc2ccccc2)NC(=O)[C@H](Cc2ccccc2)NC(=O)[C@@H](NC(=O)[C@H](CO)NC(=O)[C@H](CC(C)C)NC(=O)[C@H](CCCNC(=N)N)NC(=O)[C@H](CCSC)NC(=O)[C@H](C)N)CCCCNC(=O)NCCCC[C@@H](C(=O)N[C@@H](CCC(N)=O)C(=O)N[C@@H](CCCNC(=N)N)C(=O)N[C@@H](CCCCN)C(=O)N[C@@H](CCCCN)C(=O)O)NC1=O — helicity (circular dichroism; 20% TFE in PBS; 200 µM, pH 7.4, 25 °C): 6%
O=c1cc(-c2ccccc2)oc2c(Br)c(O)c(O)c(O)c12 — concentration (mass spectrometry; C57BL/6 mouse, plasma; oral, 250 mg/kg, 12 h, single dose): 2080 ng/mL
CC(C)[C@H](NC(=O)[C@H](Cc1c[nH]c2ccccc12)NC(=O)[C@H](Cc1ccccc1)NC(=O)[C@@H](NC(=O)[C@@H](NC(=O)[C@H](CCCCN)NC(=O)[C@@H](N)CCCCN)C(C)C)C(C)C)C(=O)N[C@@H](CCCCN)C(=O)N[C@@H](Cc1ccccc1)C(=O)N[C@@H](CCCCN)C(N)=O — IL-6 level (ELISA; mouse, blood; intravenous, 500 µg/kg, 5 days): 0.59 ± 0.04 ng/mL
COC(=O)C[C@](O)(CCCC(C)(C)OC(C)=O)C(=O)O[C@@H]1C(OC)=C[C@]23CCCN2CCc2cc4c(cc2[C@H]13)OCO4 — tissue concentration (CD1 mouse, large intestine; subcutaneous, 1 mg/kg, 0.5 h): 485 ng/mL
NC(=O)[C@@H](CCCCNC(=O)CNC(=O)CCC(=O)NCCc1c[nH]cn1)NC(=O)[C@@H](Cc1ccc(O)cc1)NC(=O)[C@@H](CCCCNC(=O)CNC(=O)CCC(=O)NCCc1c[nH]cn1)NC(=O)Cc1ccc(CN2CCN(CC(=O)O)CCN(CC(=O)O)CC2)cc1 [fluorine-18 labelled] — tissue ratio (tumour-bearing nude mice; intravenous, 3 h, TF2 pretargeting; reference: tumour over liver): 189 ± 43
CCNc1cc2[o+]c3cc(NCC)c(C)cc3c(-c3ccccc3C(=O)OCCOCC[18F])c2cc1C — heart to liver ratio (PET; rat; 5 min p.i.): 1.2
COCC(=O)NCCSc1c(-c2ccc(Br)cc2)[nH]c2ccccc12 — hepatocyte CLint (metabolic stability; rat, hepatocytes): > 400 µL/min/10⁶ cells
N=C(N)NCc1ccc(C(=O)NCCCC[C@H](NC(=O)CCCCCCC(=O)NCCCC[C@H](NC(=O)N[C@@H](CCC(=O)O)C(=O)O)C(=O)O)C(=O)O)cc1[211At] — tissue uptake (SCID mouse, PC-3 xenografts, lungs; 2 h): 1.96 ± 0.26 %ID/g
COc1ccc([N+]#[C][Re]2(=[C]=O)(=[C]=O)(=[C]=O)[N]3C(C)=CC=c4ccc5c(c43)[N]2C(C)=CC=5)cc1.O=S(=O)([O-])C(F)(F)F — luminescence lifetime (PBS; 10 µM, air-equilibrated): 1 µs
CCN(CC)c1ccc2c(-c3ccccc3C(=O)OCCC[18F])c3ccc(=[N+](CC)CC)cc-3oc2c1 — radioactivity concentration (microPET; rat, heart; dose not given, 5 min post injection): 66 ± 6 kBq/cm³
CC(=O)OC1O[C@@H]2O[C@@]3(C)CC[C@H]4[C@H](C)CCC([C@H]1C)[C@@]24OO3 (stereo partly shown) — dead embryos (Tg(fli1:EGFP) zebrafish embryos; 10 µg/mL, up to 48 hpf): 3 count
CCCCCCCCCCCCC(=O)O.O=C1CCCC2C3CCCN4CCCC(CN12)C34 (stereo not shown) — log octanol-water partition coefficient (shake-flask; simulated body fluid; pH 7.4, 37 °C): 0.99
CC[C@H](C)[C@H](NC(=O)[C@H](CC(=O)O)NC(=O)[C@H](CO)NC(=O)[C@H](CCC(N)=O)NC(=O)[C@H](C)NC(=O)[C@H](CC(=O)O)NC(=O)[C@H](CCC(=O)O)NC(=O)[C@H](Cc1c[nH]cn1)NC(=O)[C@H](Cc1ccc(O)cc1)NC(=O)[C@H](C)NC(=O)[C@H](CC(=O)O)NC(=O)[C@H](CCC(=O)O)NC(=O)[C@H](Cc1c[nH]cn1)NC(=O)[C@H](Cc1ccc(O)cc1)NC(=O)[C@H](C)NC(=O)[C@H](CC(=O)O)NC(=O)[C@H](CCC(=O)O)NC(=O)[C@H](Cc1c[nH]cn1)NC(=O)[C@H](Cc1ccc(O)cc1)NC(=O)[C@H](C)NC(=O)[C@H](CC(=O)O)NC(=O)[C@H](CCC(=O)O)NC(=O)[C@H](Cc1c[nH]cn1)NC(=O)[C@H](Cc1ccc(O)cc1)NC(=O)[C@H](C)NC(=O)[C@H](CC(=O)O)NC(=O)[C@H](CCC(=O)O)NC(=O)[C@H](Cc1c[nH]cn1)NC(=O)[C@@H](N)Cc1ccc(O)cc1)C(=O)N[C@H](C(=O)N[C@@H](C)C(=O)N[C@@H](Cc1c[nH]cn1)C(=O)N[C@@H](CC(C)C)C(=O)N[C@@H](CC(C)C)C(=O)O)C(C)C — AST (mouse, SN model; dose not given): 92 ± 5 IU/L
O=C(NCCCCCCn1ccc2ccccc21)Oc1ccccc1 — parent remaining (rat liver S9 fraction; 30 min, added: NADPH): 50 ± 2%
CCOP(=O)(OCC)OCCCCOC(=O)CC1=C(C)/C(=C/c2ccc([S+](C)[O-])cc2)c2ccc(F)cc21 (stereo not shown) — Tmax (rat, muscle; topical, 50 mg/kg, PSH vehicle): 0.0417 days
CC[C@H](C)C(=O)N1CCC(NC(=O)Nc2ccc(OC(F)(F)F)c(F)c2)CC1 — subjects with feeling hot TEAE (healthy volunteers; oral, 24 mg single dose): 0%
C[C@]12CC[C@H](O)CC1CCC1C2[C@H](O)C(=O)[C@]2(C)[C@@H](c3ccc(=O)oc3)CC[C@]12O (stereo partly shown) — Km (sulfation, substrate; rat liver cytosol; pH 7.4): 233 ± 28.4 µM
CCOP(=O)(OCC)OCCCCOC(=O)CC1=C(C)C(=Cc2ccc([S+](C)[O-])cc2)c2ccc(F)cc21 (stereo not shown) — intact drug in lungs (lung; i.p. and i.v.; reference: inhalation): < 12%
[11CH3]n1c(=O)n(CCCO)c(=O)c2c1nc(Oc1cccc(OC(F)(F)F)c1)n2Cc1ccc(Cl)cc1 — tracer uptake (ex vivo biodistribution; Sprague Dawley rat, heart; 5 min post injection): 2.06 ± 0.58 %ID/g
CC(C)[C@H](NC(=O)CNC(=O)[C@H](CCC(N)=O)NC(=O)[C@H](C)N)C(=O)O — subjects with serious adverse events (human; 10 mg/kg single dose): 0%
COC(=O)C[C@H](NC(=O)[C@H](C)NC(=O)[C@@H](NC(=O)[C@H](CC(=O)OC)NC(=O)[C@@H](NC(=O)c1ccc2ccccc2n1)C(C)C)C(C)C)C(=O)COc1c(F)cccc1F — heart rate and QTc (telemetry; conscious dog; intravenous, up to 3 mg/kg): no effect
CCCCCCCCC=CCCCCCCCC(=O)OCC1OC(n2ccc(N)nc2=O)C(F)(F)C1O (stereo not shown) — plasma concentration (beagle dog, plasma; oral, dose not given): not detected
CC[C@H](C)[C@@H]1NC(=O)[C@H](CCCCN)NC(=O)[C@H](CCCCN)NC(=O)[C@H](Cc2ccc(O)cc2)NC(=O)[C@H](CC(C)C)NC(=O)[C@@H]2CCCN2C(=O)CNC(=O)CNC(=O)[C@@H](NC(=O)CN)CSSC[C@@H](C(=O)N[C@@H](CCCCN)C(=O)N[C@@H](CO)C(N)=O)NC(=O)[C@H](CC(C)C)NC(=O)[C@H](CCCCN)NC(=O)[C@H](CCCCN)NC(=O)[C@H]([C@@H](C)CC)NC(=O)[C@H]([C@@H](C)CC)NC(=O)[C@H](CCCCN)NC(=O)[C@H](CCCCN)NC(=O)[C@H](Cc2ccc(O)cc2)NC(=O)[C@H](CC(C)C)NC(=O)[C@@H]2CCCN2C(=O)[C@H](C)NC(=O)CNC(=O)CNC(=O)[C@H](CO)NC(=O)CNC(=O)CNC(=O)[C@H](CO)NC(=O)[C@H](CCCCN)NC(=O)[C@H](CC(C)C)NC(=O)[C@H](CC(C)C)NC(=O)[C@H](CCCCN)NC(=O)[C@H](CCCCN)NC(=O)[C@H]([C@@H](C)CC)NC1=O — remaining intact peptide (25% human serum; 50 µM, 24 h; reference: 0 h control): 0%
COc1cc(NC(=O)C(=O)c2c(C)n(Cc3ccc(Cl)cc3)c3ccc(C)cc23)ccn1 — Vd (male cynomolgus monkey, plasma; intravenous, 1 mg/kg): 4.52 L/kg
CC(C)C[C@H](NC(=O)[C@H](CCCCN)NC(=O)[C@H](CCC(=O)O)NC(=O)[C@H](C)NC(=O)[C@@H](NC(=O)[C@H](CCCCN)NC(=O)[C@H](CC(=O)O)NC(=O)[C@H](Cc1ccc(O)cc1)NC(=O)[C@H](Cc1ccccc1)NC(=O)[C@H](C)NC(=O)[C@H](CCCCN)NC(=O)[C@H](CC(C)C)NC(=O)[C@H](Cc1c[nH]c2ccccc12)NC(=O)[C@@H](N)CC(=O)O)C(C)C)C(=O)N[C@@H](CCCCN)C(=O)N[C@@H](CCC(=O)O)C(=O)N[C@@H](C)C(=O)N[C@@H](Cc1ccccc1)C(=O)N1CCC[C@H]1C(=O)N[C@@H](CC(=O)O)C(=O)N[C@@H](Cc1c[nH]c2ccccc12)C(=O)N[C@@H](C)C(=O)N[C@@H](CCCCN)C(=O)N[C@@H](C)C(=O)N[C@@H](C)C(=O)N[C@@H](Cc1ccc(O)cc1)C(=O)N[C@@H](CC(=O)O)C(=O)N[C@@H](CCCCN)C(=O)N[C@@H](C)C(=O)N[C@@H](C)C(=O)N[C@@H](CCC(=O)O)C(=O)N[C@@H](CCCCN)C(=O)N[C@@H](C)C(=O)N[C@@H](CCCCN)C(=O)N[C@@H](CCC(=O)O)C(=O)N[C@@H](C)C(=O)N[C@@H](C)C(=O)O — Tmax (cynomolgus monkey male, plasma; intravenous infusion, 8 mg/kg, day 1, 30 min infusion): 0 days

Excerpt of the above:
O=S(=O)(O)C(F)(F)C(F)(F)OC(F)(C(F)(F)F)C(F)(F)OC(F)C(F)(F)F (stereo not shown) — elimination half-life (two-sample first-order model; human, both sexes, serum): 296 days
CC(C)C[C@H](NC=O)C(=O)N[C@@H](C)C(=O)N[C@@H](C)C(=O)N[C@@H](CC(=O)O)C(=O)N[C@@H](CC(C)C)C(=O)N[C@@H](CC(C)C)C(=O)N[C@@H](C)C(=O)N[C@@H](C)C(=O)N[C@@H](CC(C)C)C(=O)NCC(=O)N[C@@H](CC(=O)O)C(=O)N[C@@H](CC(C)C)C(=O)N[C@@H](C)C(=O)N[C@@H](CCCCN)C(=O)N[C@@H](Cc1c[nH]c2ccccc12)C(=O)N[C@@H](CC(C)C)C(=O)N[C@@H](CC(C)C)C(=O)N[C@@H](CC(=O)O)C(=O)N[C@@H](C)C(=O)N[C@@H](CC(C)C)C(=O)N[C@@H](C)C(=O)N[C@@H](CCCCN)C(=O)N[C@@H](C)C(=O)N[C@@H](C)C(=O)N[C@@H](CCCCN)C(=O)N[C@@H](CCCCN)C(=O)O (racemic) — helicity (circular dichroism; phosphate buffer 10 mM; 1 to 5 µM, pH 7.5, approximate): 54%
